Experimental data of several laboratories.
Lines come from different studies, so protocols differ. Several values in a cell are separate wells, animals, samples, runs or records. Numbers after ± are the reported error.
T1: PSMG1/PSMG2 heterodimer (Homo sapiens); chain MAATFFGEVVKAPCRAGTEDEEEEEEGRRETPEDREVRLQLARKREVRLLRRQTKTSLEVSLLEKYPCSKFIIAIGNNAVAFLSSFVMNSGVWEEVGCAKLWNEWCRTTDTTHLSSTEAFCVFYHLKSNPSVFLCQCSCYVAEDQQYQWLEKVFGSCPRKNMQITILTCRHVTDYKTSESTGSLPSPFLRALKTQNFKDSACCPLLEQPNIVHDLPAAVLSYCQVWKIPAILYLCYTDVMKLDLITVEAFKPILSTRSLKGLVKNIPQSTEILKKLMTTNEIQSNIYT; chain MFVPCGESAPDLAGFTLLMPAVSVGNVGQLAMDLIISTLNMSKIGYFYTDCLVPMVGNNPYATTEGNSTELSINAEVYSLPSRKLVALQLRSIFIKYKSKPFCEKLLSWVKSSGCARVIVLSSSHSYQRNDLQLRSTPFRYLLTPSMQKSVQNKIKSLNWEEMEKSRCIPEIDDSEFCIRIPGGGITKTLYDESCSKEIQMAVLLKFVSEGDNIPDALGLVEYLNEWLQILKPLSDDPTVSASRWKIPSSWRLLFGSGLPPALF
B1: FUS 164-526 (Homo sapiens, UniProt P35637); sequence looked up; chain SSGGGGGGGGGGNYGQDQSSMSSGGGSGGGYGNQDQSGGGGSGGYGQQDRGGRGRGGSGGGGGGGGGGYNRSSGGYEPRGRGGGRGGRGGMGGSDRGGFNKFGGPRDQGSRHDSEQDNSDNNTIFVQGLGENVTIESVADYFKQIGIIKTNKKTGQPMINLYTDRETGKLKGEATVSFDDPPSAKAAIDWFDGKEFSGNPIKVSFATRRADFNRGGGNGRGGRGRGGPMGRGGYGGGGSGGGGRGGFPSGGGGGGGQQRAGDWKCPNPTCENMNFSWRNECNQCKAPKPDGPGGGPGGSHMGGNYGDDRRGGRGGYDRGGYRGRGGDRGGFRGGRGGGDRGGFGPGKMDSRGEHRQDRRERPY
B2: EFR3B 716-787 (Homo sapiens, UniProt Q9Y2G0); chain VPAEEITYETLKKAIVDSVAVEEQERERRRQVVEKFQKAPFEEIAAHCGARASLLQSKLNQIFEITIRPPPS
B3: PSMA7 (Homo sapiens, UniProt O14818); chain MSYDRAITVFSPDGHLFQVEYAQEAVKKGSTAVGVRGRDIVVLGVEKKSVAKLQDERTVRKICALDDNVCMAFAGLTADARIVINRARVECQSHRLTVEDPVTVEYITRYIASLKQRYTQSNGRRPFGISALIVGFDFDGTPRLYQTDPSGTYHAWKANAIGRGAKSVREFLEKNYTDEAIETDDLTIKLVIKALLEVVQSGGKNIELAVMRRDQSLKILNPEEIEKYVAEIEKEKEENEKKKQKKAS
B4: UVR8 R338A (Arabidopsis thaliana, UniProt Q9FN03); sequence looked up; chain MAEDMAADEVTAPPRKVLIISAGASHSVALLSGDIVCSWGRGEDGQLGHGDAEDRPSPTQLSALDGHQIVSVTCGADHTVAYSQSGMEVYSWGWGDFGRLGHGNSSDLFTPLPIKALHGIRIKQIACGDSHCLAVTMEGEVQSWGRNQNGQLGLGDTEDSLVPQKIQAFEGIRIKMVAAGAEHTAAVTEDGDLYGWGWGRYGNLGLGDRTDRLVPERVTSTGGEKMSMVACGWRHTISVSYSGALYTYGWSKYGQLGHGDLEDHLIPHKLEALSNSFISQISGGWRHTMALTSDGKLYGWGWNKFGQVGVGNNLDQCSPVQVRFPDDQKVVQVSCGWAHTLAVTERNNVFAWGRGTNGQLGIGESVDRNFPKIIEALSVDGASGQHIESSNIDPSSGKSWVSPAERYAVVPDETGLTDGSSKGNGGDISVPQTDVKRVRI
B5: PDCL (Homo sapiens, UniProt Q13371); sequence looked up; chain MTTLDDKLLGEKLQYYYSSSEDEDSDHEDKDRGRCAPASSSVPAEAELAGEGISVNTGPKGVINDWRRFKQLETEQREEQCREMERLIKKLSMTCRSHLDEEEEQQKQKDLQEKISGKMTLKEFAIMNEDQDDEEFLQQYRKQRMEEMRQQLHKGPQFKQVFEISSGEGFLDMIDKEQKSIVIMVHIYEDGIPGTEAMNGCMICLAAEYPAVKFCKVKSSVIGASSQFTRNALPALLIYKGGELIGNFVRVTDQLGDDFFAVDLEAFLQEFGLLPEKEVLVLTSVRNSATCHSEDSDLEID
B6: MED2/PGD1 four-helix bundle 1-431 (Saccharomyces cerevisiae); chain 1 MVVQNSPVSSVHTANFSERGSNTRTMTYKNKLTVCFDDILKVGAEMMMQQQLKNVQLDSYLVNGFSQSQQKLLKEKVKLFHGILDDLETSLSQSSSYLETLTALGKEKEKEREEAEKKRAEQENMRKVREQEELKKRQELEEASQQQQLQQNSKEKNGLGLNFSTTAPANTTDANGSKENYQELGSLQSSSQTQLENANAANNGAAFSPLTTTRIQSQQAQPSDVMFNDLNSMDISMFSGLDSTGFDSTAFNATVDETKGFDDNDSGNNYNDINISSIENNINNNINSTKNGKDNNNESNKNNNGDEKNKNNNEDNENNNNSSEKNNNNNNNNNNNNDDNGNNNNNNSGNDNNNTTNNDSNNKNNSITTGNDNENIVNNDLPTTVVSNPGDNPPPADNGEEYLTLNDFNDLNIDWSTTGDNGELDLSGFNI; chain 2 MDSIIPAGVKLDDLQVILAKNENETRDKVCKQINEARDEILPLRLQFNEFIQIMANIDQEGSKQADRMAKYLHIRDKILQLNDRFQTLSSHLEALQPLFSTVPEYLKTADNRDRSFQLLEPLSTYNKNGNAVCSTATVVSTNHSAAASTPTTTATPHANPITHAHSLSNPNSTATMQHNPLAGKRGPKSGSTMGTPTVHNSTAAAPIAAPKKPRKPRQTKKAKAQAQAQAQAQAQVYAQQSTVQTPITASMAAALPNPTPSMINSVSPTNVMGTPLTNMMSPMGNAYSMGAQNQGGQVSMSQFNGSGNGSNPNTNTNSNNTPLQSQLNLNNLTPANILNMSMNNDFQQQQQQQQQQQQPQPQYNMNMGMNNMNNGGKELDSLDLNNLELGGLNMDFL
B7: PUM1 800-1186 (Homo sapiens, UniProt Q14671); chain SASSLFSPSSTLFSSSRLRYGMSDVMPSGRSRLLEDFRNNRYPNLQLREIAGHIMEFSQDQHGSRFIQLKLERATPAERQLVFNEILQAAYQLMVDVFGNYVIQKFFEFGSLEQKLALAERIRGHVLSLALQMYGCRVIQKALEFIPSDQQNEMVRELDGHVLKCVKDQNGNHVVQKCIECVQPQSLQFIIDAFKGQVFALSTHPYGCRVIQRILEHCLPDQTLPILEELHQHTEQLVQDQYGNYVIQHVLEHGRPEDKSKIVAEIRGNVLVLSQHKFASNVVEKCVTHASRTERAVLIDEVCTMNDGPHSALYTMMKDQYANYVVQKMIDVAEPGQRKIVMHKIRPHIATLRKYTYGKHILAKLEKYYMKNGVDLGPICGPPNGII
B8: RRP42 1-265 (Saccharomyces cerevisiae, UniProt Q12277); chain MSLSVAEKSYLYDSLASTPSIRPDGRLPHQFRPIEIFTDFLPSSNGSSRIIASDGSECIVSIKSKVVDHHVENELLQVDVDIAGQRDDALVVETITSLLNKVLKSGSGVDSSKLQLTKKYSFKIFVDVLVISSHSHPVSLISFAIYSALNSTYLPKLISAFDDLEVEELPTFHDYDMVKLDINPPLVFILAVVGNNMLLDPAANESEVANNGLIISWSNGKITSPIRSVALNDSNVKSFKPHLLKQGLAMVEKYAPDVVRSLENL
B9: nlpI (Escherichia coli, UniProt P0AFB1); sequence looked up; chain CSNTSWRKSEVLAVPLQPTLQQEVILARMEQILASRALTDDERAQLLYERGVLYDSLGLRALARNDFSQALAIRPDMPEVFNYLGIYLTQAGNFDAAYEAFDSVLELDPTYNYAHLNRGIALYYGGRDKLAQDDLLAFYQDDPNDPFRSLWLYLAEQKLDEKQAKEVLKQHFEKSDKEQWGWNIVEFYLGNISEQTLMERLKADATDNTSLAEHLSETNFYLGKYYLSLGDLDSATALFKLAVANNVHNFVEHRYALLELSLLGQDQDDLAESDQQ
B10: PUM1 589-701 (Homo sapiens, UniProt Q14671); sequence looked up; chain ISSSAAQAAVAAAAASANGAAGGLAGTTNGPFRPLGTQQPQPQPQQQPNNNLASSSFYGNNSLNSNSQSSSLFSQGSAQPANTSLGFGSSSSLGATLGSALGGFGTAVANSNT
B11: CCDC22/CCDC93 DBD dimer (Homo sapiens); chain 1 GAGAKTGAPKGSRFTHSEKFTFHLEPQAQATQVSDVPATSRRPEQVTWAAQEQELESLREQLEGVNRSIEEVEADMKTLGVSFVQAESECRHSKLSTAEREQALRLKSRAVELLPDGTANLAKLQLVVENSAQRVIHLAGQWEKHRVPLLAEYRHLRKLQDCRELES; chain 2 SPEKLGTSQLHRRKVISLNKQIAQKTKHLEELRASHTSLQARYNEAKKTLTELKTYSEKLDKEQAALEKIESKADPSILQNLRALVAMNENLKSQEQEFKAHCREEMTRLQQEIENLKAERAPRGDEKT
Chain of UniProt Q64663 (whole entry, unmodified, looked up): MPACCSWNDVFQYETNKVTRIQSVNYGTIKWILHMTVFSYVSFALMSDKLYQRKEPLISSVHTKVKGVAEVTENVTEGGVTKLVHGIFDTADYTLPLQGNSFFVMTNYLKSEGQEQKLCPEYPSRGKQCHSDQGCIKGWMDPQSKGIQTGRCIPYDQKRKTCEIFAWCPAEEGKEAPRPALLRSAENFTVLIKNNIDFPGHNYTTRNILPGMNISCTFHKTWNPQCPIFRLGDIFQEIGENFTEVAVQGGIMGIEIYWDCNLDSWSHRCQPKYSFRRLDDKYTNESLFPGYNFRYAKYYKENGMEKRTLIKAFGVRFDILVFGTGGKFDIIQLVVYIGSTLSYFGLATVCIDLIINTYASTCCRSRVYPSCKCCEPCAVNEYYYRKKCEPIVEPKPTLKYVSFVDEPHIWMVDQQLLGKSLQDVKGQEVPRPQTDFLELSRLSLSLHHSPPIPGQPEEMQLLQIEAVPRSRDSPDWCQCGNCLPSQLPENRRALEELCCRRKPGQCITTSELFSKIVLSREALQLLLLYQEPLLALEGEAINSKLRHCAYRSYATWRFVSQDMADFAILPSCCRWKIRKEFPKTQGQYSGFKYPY
Chain of UniProt P13382 (whole entry, looked up): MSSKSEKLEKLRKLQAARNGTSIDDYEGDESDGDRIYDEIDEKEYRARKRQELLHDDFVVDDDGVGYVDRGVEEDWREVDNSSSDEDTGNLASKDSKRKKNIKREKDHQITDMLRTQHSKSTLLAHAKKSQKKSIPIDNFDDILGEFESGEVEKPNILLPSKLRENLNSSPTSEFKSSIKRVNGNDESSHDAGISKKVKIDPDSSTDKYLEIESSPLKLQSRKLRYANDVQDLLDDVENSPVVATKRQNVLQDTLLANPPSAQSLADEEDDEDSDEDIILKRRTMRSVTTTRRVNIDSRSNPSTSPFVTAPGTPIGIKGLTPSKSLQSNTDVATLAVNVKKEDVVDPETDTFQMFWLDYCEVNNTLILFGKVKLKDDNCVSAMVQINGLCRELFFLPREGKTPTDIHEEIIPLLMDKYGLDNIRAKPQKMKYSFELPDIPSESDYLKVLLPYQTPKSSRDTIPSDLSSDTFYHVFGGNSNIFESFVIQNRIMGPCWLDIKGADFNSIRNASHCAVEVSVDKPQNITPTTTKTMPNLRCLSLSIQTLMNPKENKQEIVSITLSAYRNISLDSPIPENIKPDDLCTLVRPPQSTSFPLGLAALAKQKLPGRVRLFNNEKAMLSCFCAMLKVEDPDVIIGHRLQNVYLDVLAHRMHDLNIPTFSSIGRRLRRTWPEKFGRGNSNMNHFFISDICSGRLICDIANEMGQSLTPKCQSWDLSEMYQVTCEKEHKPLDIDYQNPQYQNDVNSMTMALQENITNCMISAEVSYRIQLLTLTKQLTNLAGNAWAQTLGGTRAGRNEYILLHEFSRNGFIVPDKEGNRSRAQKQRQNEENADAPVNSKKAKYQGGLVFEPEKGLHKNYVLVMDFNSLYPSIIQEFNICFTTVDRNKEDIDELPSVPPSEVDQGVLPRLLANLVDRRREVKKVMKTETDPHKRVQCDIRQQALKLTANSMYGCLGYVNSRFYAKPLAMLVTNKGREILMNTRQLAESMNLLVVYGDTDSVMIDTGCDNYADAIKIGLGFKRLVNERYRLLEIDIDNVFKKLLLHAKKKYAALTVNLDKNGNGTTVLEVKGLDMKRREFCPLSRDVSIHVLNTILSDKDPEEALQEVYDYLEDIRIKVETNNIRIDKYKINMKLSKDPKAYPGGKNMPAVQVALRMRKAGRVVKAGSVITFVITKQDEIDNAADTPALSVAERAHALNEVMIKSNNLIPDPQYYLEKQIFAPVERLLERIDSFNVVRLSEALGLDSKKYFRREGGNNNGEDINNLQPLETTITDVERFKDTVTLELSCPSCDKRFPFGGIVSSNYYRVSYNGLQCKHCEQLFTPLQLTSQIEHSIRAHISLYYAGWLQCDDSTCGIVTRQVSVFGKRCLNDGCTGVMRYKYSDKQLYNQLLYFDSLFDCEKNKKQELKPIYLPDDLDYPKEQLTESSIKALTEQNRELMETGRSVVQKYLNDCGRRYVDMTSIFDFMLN
Chain of UniProt P48643 (whole entry, looked up): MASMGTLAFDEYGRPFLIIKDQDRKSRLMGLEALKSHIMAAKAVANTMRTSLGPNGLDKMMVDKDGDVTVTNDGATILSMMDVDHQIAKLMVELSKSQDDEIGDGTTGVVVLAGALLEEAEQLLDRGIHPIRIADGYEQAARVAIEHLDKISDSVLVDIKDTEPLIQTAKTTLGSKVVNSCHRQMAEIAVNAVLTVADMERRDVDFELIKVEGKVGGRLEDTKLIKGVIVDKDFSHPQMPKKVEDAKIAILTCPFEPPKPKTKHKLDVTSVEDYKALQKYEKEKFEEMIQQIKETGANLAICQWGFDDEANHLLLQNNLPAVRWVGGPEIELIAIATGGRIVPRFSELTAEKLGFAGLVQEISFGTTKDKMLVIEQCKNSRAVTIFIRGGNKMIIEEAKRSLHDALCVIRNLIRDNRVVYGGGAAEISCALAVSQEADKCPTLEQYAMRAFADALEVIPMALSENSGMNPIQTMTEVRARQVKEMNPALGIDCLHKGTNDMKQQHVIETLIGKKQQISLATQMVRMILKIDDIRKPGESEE
Chain of UniProt Q9UPY3 (whole entry, looked up): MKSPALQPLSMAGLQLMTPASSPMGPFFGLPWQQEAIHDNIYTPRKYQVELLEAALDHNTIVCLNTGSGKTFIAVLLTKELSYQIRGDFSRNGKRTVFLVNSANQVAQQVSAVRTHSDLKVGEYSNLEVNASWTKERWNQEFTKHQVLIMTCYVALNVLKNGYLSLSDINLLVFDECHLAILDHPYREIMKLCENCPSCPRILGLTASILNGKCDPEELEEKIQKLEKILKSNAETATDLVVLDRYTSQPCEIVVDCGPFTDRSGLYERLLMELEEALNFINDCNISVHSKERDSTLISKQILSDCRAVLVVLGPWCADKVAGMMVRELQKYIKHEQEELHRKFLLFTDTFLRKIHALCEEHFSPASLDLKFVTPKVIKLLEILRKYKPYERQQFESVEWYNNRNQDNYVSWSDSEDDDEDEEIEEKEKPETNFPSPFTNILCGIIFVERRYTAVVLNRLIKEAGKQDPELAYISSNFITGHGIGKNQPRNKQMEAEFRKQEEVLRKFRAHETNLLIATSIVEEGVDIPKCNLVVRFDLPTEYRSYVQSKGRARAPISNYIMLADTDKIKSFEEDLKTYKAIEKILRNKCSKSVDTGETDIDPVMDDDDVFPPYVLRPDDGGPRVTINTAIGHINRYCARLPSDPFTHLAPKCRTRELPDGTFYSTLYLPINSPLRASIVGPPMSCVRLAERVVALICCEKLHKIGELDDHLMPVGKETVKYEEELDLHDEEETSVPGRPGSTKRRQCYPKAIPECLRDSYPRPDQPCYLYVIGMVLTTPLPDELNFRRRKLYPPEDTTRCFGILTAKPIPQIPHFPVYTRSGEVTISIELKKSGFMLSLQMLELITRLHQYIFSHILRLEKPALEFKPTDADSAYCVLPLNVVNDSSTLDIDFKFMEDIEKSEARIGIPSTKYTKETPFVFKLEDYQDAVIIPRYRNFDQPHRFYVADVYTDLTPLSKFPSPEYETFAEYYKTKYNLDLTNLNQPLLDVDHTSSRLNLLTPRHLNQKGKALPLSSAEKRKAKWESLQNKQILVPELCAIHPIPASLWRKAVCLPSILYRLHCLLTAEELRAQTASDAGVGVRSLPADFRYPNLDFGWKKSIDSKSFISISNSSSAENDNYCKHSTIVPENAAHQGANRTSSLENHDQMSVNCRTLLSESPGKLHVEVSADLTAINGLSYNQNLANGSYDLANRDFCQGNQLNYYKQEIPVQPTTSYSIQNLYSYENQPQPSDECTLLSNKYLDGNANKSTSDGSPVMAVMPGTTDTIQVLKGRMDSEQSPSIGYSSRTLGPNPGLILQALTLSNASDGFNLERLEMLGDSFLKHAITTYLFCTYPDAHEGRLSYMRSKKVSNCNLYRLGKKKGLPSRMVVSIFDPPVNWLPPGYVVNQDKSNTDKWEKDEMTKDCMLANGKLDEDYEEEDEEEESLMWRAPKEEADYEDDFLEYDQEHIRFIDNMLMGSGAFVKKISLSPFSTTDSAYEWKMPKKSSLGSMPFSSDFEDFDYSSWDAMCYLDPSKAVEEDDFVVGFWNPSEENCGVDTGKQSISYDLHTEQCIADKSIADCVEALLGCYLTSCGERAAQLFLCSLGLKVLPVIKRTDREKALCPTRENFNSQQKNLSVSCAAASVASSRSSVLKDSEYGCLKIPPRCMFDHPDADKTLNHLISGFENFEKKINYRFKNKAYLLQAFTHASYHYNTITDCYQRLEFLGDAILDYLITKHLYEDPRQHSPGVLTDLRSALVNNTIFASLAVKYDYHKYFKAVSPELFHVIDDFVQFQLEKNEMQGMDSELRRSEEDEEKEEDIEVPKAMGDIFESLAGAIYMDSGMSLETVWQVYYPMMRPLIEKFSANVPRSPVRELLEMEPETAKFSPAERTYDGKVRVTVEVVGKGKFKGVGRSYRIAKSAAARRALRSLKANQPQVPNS
Chain of UniProt Q6NQK2 (whole entry, looked up): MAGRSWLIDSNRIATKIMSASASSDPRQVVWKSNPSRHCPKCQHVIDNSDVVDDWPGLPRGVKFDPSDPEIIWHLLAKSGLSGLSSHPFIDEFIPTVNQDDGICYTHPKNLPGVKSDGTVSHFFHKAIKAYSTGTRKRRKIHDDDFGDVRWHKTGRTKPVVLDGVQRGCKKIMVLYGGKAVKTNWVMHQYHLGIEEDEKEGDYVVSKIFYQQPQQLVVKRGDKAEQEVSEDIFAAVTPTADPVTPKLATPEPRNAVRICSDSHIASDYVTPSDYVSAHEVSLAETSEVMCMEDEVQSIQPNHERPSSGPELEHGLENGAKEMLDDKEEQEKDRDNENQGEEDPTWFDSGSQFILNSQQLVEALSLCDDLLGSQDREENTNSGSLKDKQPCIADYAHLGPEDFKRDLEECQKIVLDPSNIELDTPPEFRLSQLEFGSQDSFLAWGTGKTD

Substance	target or system	test	test system	conditions	how to read	endpoint	value
B1 (FUS 164-526)	NUP62 (Homo sapiens, UniProt P37198)	co-IP	–	–	–	binding	binds
B2 (EFR3B 716-787)	TTC7A/FAM126A FAM126A 1-308	BLI	–	–	–	binding	binds
BzATP	P2X purinoceptor 7 (P2rx7, Rattus norvegicus, UniProt Q64663, R125A)	ion current, agonist, two-electrode voltage clamp	Xenopus oocytes	33.33 µM	–	normalized current	1 and 0.993 and 0.967
PRI2 (Saccharomyces cerevisiae, UniProt P20457)	POL1 (Saccharomyces cerevisiae, UniProt P13382)	mass photometry	–	–	–	binding	binds
FGA (Homo sapiens, UniProt P02671)	GTF3C6 (Homo sapiens, UniProt Q969F1)	cross-linking MS	–	together with: DSSO	–	cross-linked residues	K476 to K94
KKAQPISVTMVTPADLEPPQAKK (TonB residues 42-60 (Escherichia coli))	exbD 43-141 (Escherichia coli, UniProt P0ABV2)	NMR titration	peptide	–	–	binding	binds
TARBP2 (Homo sapiens, UniProt Q15633)	DICER1 (Homo sapiens, UniProt Q9UPY3)	SEC	–	–	–	binding	binds
B3 (PSMA7)	T1, PSMG1/PSMG2 heterodimer (Homo sapiens)	cryo-EM	–	–	–	binding	binds
colistin	Pseudomonas aeruginosa	–	clinical isolate RKI 40/14	–	–	MIC	≤ 1 µg/mL
11-deoxycorticosterone	–	stopped-flow global kinetic fitting	–	4-state closed model (best), 10-fold adrenodoxin excess, together with: substrate binding k-3	–	rate constant	197 ± 10.3 min⁻¹
B4 (UVR8 R338A)	LOX1 (Arabidopsis thaliana, UniProt Q06327)	pull-down	–	–	–	binding	binds
B5 (PDCL)	CCT5 (Homo sapiens, UniProt P48643)	cross-linking	–	–	–	binding	binds
LNTRGGSFQDFRAEFIQRSTQFLTSLPEFCKEVVSRILGRSTAQRGGYSAV (ATG27 221-271 (Saccharomyces cerevisiae, UniProt P46989); sequence looked up)	ATG9 2-318 (Saccharomyces cerevisiae, UniProt Q12142)	pull-down	–	–	–	binding	binds
B6	GAL11 (Saccharomyces cerevisiae, UniProt P19659)	cryo-EM	–	–	–	binding	binds
DVLLLDVTPLS (HSPA9 interdomain linker, 434-444 (Homo sapiens))	HSPA9 52-431 (Homo sapiens, UniProt P38646)	BLI	peptide	together with: ADP	–	binding	binds
B7 (PUM1 800-1186)	CNOT1/CNOT2/CNOT3 NOT module 1833-2361	pull-down	–	–	–	binding	binds
B8 (RRP42 1-265)	RRP4 (Saccharomyces cerevisiae, UniProt P38792)	cryo-EM	–	–	–	binding	binds
SOG1 (Arabidopsis thaliana, UniProt Q6NQK2)	PRL1 (Arabidopsis thaliana, UniProt Q42384)	pull-down	–	–	–	binding	binds
B9 (nlpI)	protein N130K/N225K/Q284R (Escherichia coli, UniProt P37648)	pull-down	–	–	–	binding	binds
Peginesatide	UT7/EPO	RT-qPCR, item: NFKBIZ	–	concentration not given, 90 min, normalized to HPRT1	relative to: vehicle	mRNA level	2.1 fold
B10 (PUM1 589-701)	CNOT1/CNOT2/CNOT3 C-terminal NOT module 1833-2361	pull-down	–	–	–	binding	binds
B11 (CCDC22/CCDC93 DBD dimer)	DENND10 (Homo sapiens, UniProt Q8TCE6)	pull-down	–	–	–	binding	binds

For quick reference, copied from above:
Substance	target or system	test	test system	conditions	how to read	endpoint	value
B5 (PDCL)	CCT5 (Homo sapiens, UniProt P48643)	cross-linking	–	–	–	binding	binds
LNTRGGSFQDFRAEFIQRSTQFLTSLPEFCKEVVSRILGRSTAQRGGYSAV (ATG27 221-271 (Saccharomyces cerevisiae, UniProt P46989); sequence looked up)	ATG9 2-318 (Saccharomyces cerevisiae, UniProt Q12142)	pull-down	–	–	–	binding	binds
B6	GAL11 (Saccharomyces cerevisiae, UniProt P19659)	cryo-EM	–	–	–	binding	binds
DVLLLDVTPLS (HSPA9 interdomain linker, 434-444 (Homo sapiens))	HSPA9 52-431 (Homo sapiens, UniProt P38646)	BLI	peptide	together with: ADP	–	binding	binds
